Results pooled from the literature.
A part holds a random share of what one study measured.
Chain of UniProt P57058 (whole entry, looked up): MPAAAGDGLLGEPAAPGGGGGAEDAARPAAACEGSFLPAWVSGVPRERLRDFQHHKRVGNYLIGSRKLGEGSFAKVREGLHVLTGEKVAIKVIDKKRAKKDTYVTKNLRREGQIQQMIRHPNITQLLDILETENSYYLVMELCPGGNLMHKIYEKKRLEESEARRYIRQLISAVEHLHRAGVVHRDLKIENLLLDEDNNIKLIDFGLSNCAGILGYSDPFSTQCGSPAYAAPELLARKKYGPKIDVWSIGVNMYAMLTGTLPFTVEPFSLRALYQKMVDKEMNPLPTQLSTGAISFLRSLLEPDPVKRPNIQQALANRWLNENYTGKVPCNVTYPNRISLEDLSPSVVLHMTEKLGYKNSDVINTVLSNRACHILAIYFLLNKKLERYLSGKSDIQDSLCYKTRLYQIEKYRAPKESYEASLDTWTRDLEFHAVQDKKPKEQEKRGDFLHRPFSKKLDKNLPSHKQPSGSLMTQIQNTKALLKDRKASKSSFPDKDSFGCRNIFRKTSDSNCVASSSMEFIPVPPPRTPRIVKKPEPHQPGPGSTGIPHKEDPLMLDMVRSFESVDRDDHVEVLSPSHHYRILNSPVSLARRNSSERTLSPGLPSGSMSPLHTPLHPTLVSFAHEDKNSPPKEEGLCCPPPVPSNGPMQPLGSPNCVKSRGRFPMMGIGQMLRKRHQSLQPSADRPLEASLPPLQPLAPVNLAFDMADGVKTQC
Chain of UniProt P07948 (whole entry, looked up): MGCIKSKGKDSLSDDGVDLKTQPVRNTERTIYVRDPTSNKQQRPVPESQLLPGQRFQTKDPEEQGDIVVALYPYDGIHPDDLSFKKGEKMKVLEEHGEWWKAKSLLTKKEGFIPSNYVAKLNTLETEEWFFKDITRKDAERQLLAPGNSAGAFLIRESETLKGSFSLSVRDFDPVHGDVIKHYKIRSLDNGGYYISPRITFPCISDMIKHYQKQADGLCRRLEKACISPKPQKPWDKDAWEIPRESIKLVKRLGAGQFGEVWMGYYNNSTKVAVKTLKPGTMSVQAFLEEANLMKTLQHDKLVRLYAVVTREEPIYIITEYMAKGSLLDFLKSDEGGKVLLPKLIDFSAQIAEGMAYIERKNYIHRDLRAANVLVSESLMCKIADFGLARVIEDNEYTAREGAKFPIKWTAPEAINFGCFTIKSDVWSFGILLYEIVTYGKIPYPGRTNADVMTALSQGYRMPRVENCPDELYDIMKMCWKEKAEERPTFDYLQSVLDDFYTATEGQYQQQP

Block 1 — technique: universal PBM; molecule type: double-stranded DNA, one strand shown; sample: in vitro; concentration: 600 nM; reading: higher = stronger binding
Target: Sal-like protein 4, full length isoform A (SALL4, Homo sapiens, UniProt Q9UJQ4, residues 1-1053)
Chain of UniProt Q9UJQ4 (whole entry, looked up): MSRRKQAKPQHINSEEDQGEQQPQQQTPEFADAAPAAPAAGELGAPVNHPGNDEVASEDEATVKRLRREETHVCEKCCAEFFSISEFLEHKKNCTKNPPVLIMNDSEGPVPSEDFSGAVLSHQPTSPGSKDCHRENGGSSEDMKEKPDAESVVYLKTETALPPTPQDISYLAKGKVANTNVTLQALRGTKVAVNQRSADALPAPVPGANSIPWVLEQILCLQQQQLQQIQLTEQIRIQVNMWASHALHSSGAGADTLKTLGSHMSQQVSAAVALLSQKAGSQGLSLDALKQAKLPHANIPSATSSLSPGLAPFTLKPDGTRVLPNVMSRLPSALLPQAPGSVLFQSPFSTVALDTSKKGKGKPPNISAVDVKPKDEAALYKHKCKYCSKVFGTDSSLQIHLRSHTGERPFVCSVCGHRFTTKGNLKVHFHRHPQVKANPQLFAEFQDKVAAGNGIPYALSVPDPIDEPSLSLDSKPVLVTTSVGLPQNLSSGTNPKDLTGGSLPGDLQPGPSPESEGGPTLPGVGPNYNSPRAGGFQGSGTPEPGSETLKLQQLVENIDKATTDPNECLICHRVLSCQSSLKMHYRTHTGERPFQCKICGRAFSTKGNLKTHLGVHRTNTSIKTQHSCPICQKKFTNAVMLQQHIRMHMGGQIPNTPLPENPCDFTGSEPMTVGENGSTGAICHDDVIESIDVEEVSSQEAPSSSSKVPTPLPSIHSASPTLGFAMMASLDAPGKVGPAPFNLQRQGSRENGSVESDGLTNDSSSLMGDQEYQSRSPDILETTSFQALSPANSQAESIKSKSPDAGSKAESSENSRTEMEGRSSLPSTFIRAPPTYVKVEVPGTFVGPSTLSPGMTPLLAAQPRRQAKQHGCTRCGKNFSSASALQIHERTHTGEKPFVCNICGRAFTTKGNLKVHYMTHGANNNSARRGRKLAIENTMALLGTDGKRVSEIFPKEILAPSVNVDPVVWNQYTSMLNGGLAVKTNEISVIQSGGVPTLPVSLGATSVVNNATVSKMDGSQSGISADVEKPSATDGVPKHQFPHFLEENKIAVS
Setting: 8-mer, flanks averaged, mean of replicates
Oligonucleotide | E-score
GCAGGGAC | -0.26
GCGCATAA | 0.18
AGCCTAGC | -0.223
AAGGCTGC | -0.156
CCAAAAAG | 0.199
ACATTTGA | 0.283
GCTCCCAA | -0.192
AGGCCTTC | -0.0471

Block 2 — technique: aptamer microarray, sandwich; molecule type: DNA with 2'F-ANA; sample: in vitro; concentration: 200 nM; together with: Cy3 exosite-II aptamer, 400 nM; reading: higher = stronger binding; oligonucleotide: GGTTGGTGTGGTTGG
Target: Prothrombin, mature alpha-thrombin (F2, Homo sapiens, UniProt P00734)
Setting: whole 15-mer aptamer, many near background
Modification | mean fluorescence intensity [a.u.]
2'F-ANA at 2 5 6 9 10 11 12 13 | 61.9
2'F-ANA at 3 4 6 14 | 276
2'F-ANA at 1 7 13 14 15 | 56.8
2'F-ANA at 1 3 5 13 | 63
2'F-ANA at 2 3 5 6 7 9 10 11 12 13 | 54
2'F-ANA at 2 3 7 8 9 10 12 13 15 | 373
2'F-ANA at 1 3 4 6 7 8 9 10 12 15 | 94.2
2'F-ANA at 3 5 10 12 13 14 | 52.1

Single results of other studies
SMILES | target | test | setting | scale | measurement | value
Cc1ccc(NC(=O)c2ccc(CN3CCN(C)CC3)cc2)cc1Nc1nccc(-c2cccnc2)n1 | Tyrosine-protein kinase Lyn, isoform B (LYN, Homo sapiens, UniProt P07948) | enzyme activity, inhibitor | 0.5 µM | relative to: control | remaining activity | 71.2%
C[C@@]1(Cc2ccc(C#N)cc2)C(=O)N(c2cc(Cl)cc(Cl)c2)c2ncc(C(=O)NC3(c4nc(C5CCC5)no4)CC3)n21 | Hormonally up-regulated neu tumor-associated kinase (HUNK, Homo sapiens, UniProt P57058) | cell-free assay, competition with immobilised ligand | 1 µM | – | remaining binding | 100%

Excerpt of the above (block 2):
Modification | mean fluorescence intensity [a.u.]
2'F-ANA at 1 7 13 14 15 | 56.8
2'F-ANA at 1 3 5 13 | 63
